Experimental data pooled from the literature.
Each numbered part is a random draw from the data of one study; scales do not carry over between parts.

Set 1
Target: Sal-like protein 4, full length isoform B (SALL4, Homo sapiens, UniProt Q9UJQ4-2, residues 1-616)
Method: universal PBM
Molecule type: double-stranded DNA, one strand shown
Sample: in vitro
Tested at: not given
Notes: 8-mer, flanks averaged, mean of replicates
Reading: higher = stronger binding
With `GCTCTTTA` the E-score was -0.138.
The E-score of `AGCGATGA` is reported as -0.0884.
`CAAAATGA` gave an E-score of 0.256.
`GACAGCGC` has an E-score of -0.193.
With `GACCCTAC` the E-score was -0.192.
The E-score of `CACACTAG` is reported as -0.00553.
`ACGCGTTC` gave an E-score of -0.113.

Set 2
Target: RING finger protein unkempt homolog, zinc fingers 1-6, GST-SBP tag (UNK, Homo sapiens, UniProt Q9C0B0, residues 30-357)
Chain of UniProt Q9C0B0 (30-357, looked up): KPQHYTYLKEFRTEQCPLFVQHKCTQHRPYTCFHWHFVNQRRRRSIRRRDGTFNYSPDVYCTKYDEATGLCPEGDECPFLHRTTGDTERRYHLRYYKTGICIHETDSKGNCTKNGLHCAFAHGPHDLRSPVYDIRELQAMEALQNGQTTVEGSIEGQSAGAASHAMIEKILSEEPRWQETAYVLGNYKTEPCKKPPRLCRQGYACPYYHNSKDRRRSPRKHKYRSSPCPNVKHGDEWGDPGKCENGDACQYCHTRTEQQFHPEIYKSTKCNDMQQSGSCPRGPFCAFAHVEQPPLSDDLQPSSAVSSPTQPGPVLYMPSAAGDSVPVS
Method: RNA Bind-n-Seq
Molecule type: RNA
Sample: in vitro
Tested at: not given
Notes: RNA with constant flanks, ends assumed
Reference: input RNA pool
Reading: higher = stronger binding
`GGGAGUUCUACAGUCCGACGAUCCUUUGUGUUCAUGGUGGACUUUCACCAGAAAUACACACACUGGAUGAUAUUAGGAGAUCCGACCGAUUCAAAGAGCCACCUGCAUUUGGACCAAUGUGUGACUUGUUAUGGUCCGAUCCUCAACAGAGGAUUGAGCAUCA` has a bound/input enrichment of 0.176 ratio.
For `GGGAGUUCUACAGUCCGACGAUCGCUAUGAAAAGGGGAGAGCCUGCCAUCUACAGGCCAUUAGAUCCAAAGCCAUUCCCAAAUUACCGAGCUAAUUACAACUUUCGGGGCAUGUACAAUCAGAGGUAUCAUUGCCCAGUGCCUCAACAGAGGAUUGAGCAUCA`, the bound/input enrichment was 0.485 ratio.
`GGGAGUUCUACAGUCCGACGAUCUUUUUCUUUUUUUUUUUUUAAUUUUUCCCCCCAACCAUCGUGAUUUGUCUUUUCAUGCAGAUCCGUCCGAAUUCACUGCCAGGUUUCUUCUGCCCACCAAAAUGAUCCAGUCUGGAAUAACAACAGAGGAUUGAGCAUCA` gave a bound/input enrichment of 8.01 ratio.
For `GGGAGUUCUACAGUCCGACGAUCGUCAGAUUUGAGAAUGCAGAUCUGAACGACACAUCACGGAAUCUAGAAUUUCAUGAACUGCACCGCACUGGAAAUGAGCCUCCUCUGCUGGUUAUGAUCGGCUACAGUGACGGAAUGCAGCAACAGAGGAUUGAGCAUCA`, the bound/input enrichment was 0.179 ratio.

Set 3
Target: Interferon regulatory factor 5, full length, phosphomimetic (IRF5, Homo sapiens, UniProt Q13568-2, residues 1-514, K96S/S451D/S453D/S456D/S462D)
Method: protein-binding microarray
Molecule type: double-stranded DNA, one strand shown
Sample: in vitro
Tested at: 250 nM
Notes: 60-bp whole probe
Together with: salmon DNA 0.4 mg/ml
Reference: random background probes
Reading: higher = stronger binding
Shared flanks, not repeated: GCCTAGCAC … GTCTTGATTCGCTTGACGCTGCTG
With `TCACATGTGGGTTCCATACTGTGCTAG` the log fluorescence was -0.0851 z-score.
The log fluorescence of `GACGGTCTGGACTTTCGGGACGTGCTA` is reported as 3.54 z-score.
`GACTAACTGGGGTATCGAGACGTGCTA` gave a log fluorescence of 0.425 z-score.
For `TCAAGACTCATAATGGCTAGGTGCTAG`, the log fluorescence was -0.062 z-score.
For `TTAGGTATCCTTCTCCTTTCGTGCTAG`, the log fluorescence was 1.04 z-score.

Other studies, line by line
For `PhoQ, residues 284 288 289 292 302 303 SSTLSG`, the fold induction was 12 (PhoP, residues 12 14 15 18 19 LHSVQ (Escherichia coli, UniProt P23836); Sort-seq, refers to: YFP reporter; E. coli; PhoQ-PhoP variant library, together with: 10 µM Mg2+; reference: high Mg2+ state, higher = stronger signaling).

For quick reference, copied from above (set 1):
`CAAAATGA` gave an E-score of 0.256.
`GACAGCGC` has an E-score of -0.193.
